Published values pooled from the literature.
Several values in a cell are separate wells, animals, samples, runs or records. Numbers after ± are the reported error.
Nuclear receptor subfamily 2 group C member 2 ligand-binding domain: Nuclear receptor subfamily 2 group C member 2, ligand-binding domain (Homo sapiens, UniProt P49116)
MAL12: Alpha-glucosidase MAL12 (MAL12, Saccharomyces cerevisiae S288c, UniProt P53341)
ATRX F284Y/K251R: Transcriptional regulator ATRX (ATRX, Homo sapiens, UniProt P46100, F284Y/K251R)
XPO1: Exportin-1 (XPO1, Homo sapiens, UniProt O14980)
Coatomer subunit beta' WD repeat domain: Coatomer subunit beta', WD repeat domain (Homo sapiens, UniProt P35606)
CBK1: Serine/threonine-protein kinase CBK1 (CBK1, Candida albicans, UniProt Q5AP53)

Structure (SMILES) | target | assay | system | conditions | how to read | measurement | result
NC(=O)C1=CN([C@@H]2O[C@H](COP(=O)(O)OP(=O)(O)OC[C@H]3O[C@@H](n4cnc5c(N)ncnc54)[C@H](O)[C@@H]3O)[C@@H](O)[C@H]2O)C=CC1 | FSP1 F15A mutant | substrate |  | together with: 100 µM co-substrate |  | Km | 8.35 ± 2.15 µM
CO[C@@H]1[C@@H](OC(N)=O)[C@@H](O)[C@H](Oc2ccc3c(O)c(NC(=O)c4ccc(O)c(CC=C(C)C)c4)c(=O)oc3c2C)OC1(C)C | Nuclear receptor subfamily 2 group C member 2 ligand-binding domain | SPR imaging |  | 600 nM |  | koff | 1.96e-05 s⁻¹
CC(C)[C@H](NC(=O)c1cc(-c2cnn3cc(-c4ccc(OCCN5CCCCC5)cc4)cnc23)cs1)C(F)(F)F | RIPK1 (human) | radiometric kinase |  | 15 nM | baseline: RIPK1 over ULK1 | relative inhibition | 0.0114
COC(=O)[C@H]1[C@H]2C[C@@H]3c4[nH]c5cc(OC)ccc5c4CCN3C[C@H]2C[C@@H](OC(=O)c2cc(OC)c(OC)c(OC)c2)[C@@H]1OC | Nuclear receptor subfamily 2 group C member 2 ligand-binding domain | SPR imaging |  | 600 nM |  | koff | 4.12e-05 s⁻¹
Clc1cncc(OC[C@H]2CN(CCN3CCc4ccccc43)CCO2)c1 | HTR4 (Homo sapiens, UniProt Q13639) | radioligand binding |  | concentration not given |  | inhibition | 26%
CCS(=O)(=O)N1CC(CC#N)(n2cc(-c3ncnc4[nH]ccc34)cn2)C1 | ORM1 (Homo sapiens, UniProt P02763) | fluorescence quenching |  | 308 K |  | Gibbs free energy | -25.9 kJ/mol
O=C1OC(c2ccccc2)=N/C1=C\c1ccccc1O | MAL12 | inhibitor, Lineweaver-Burk |  | 3200 ppm, together with: pNPG substrate |  | Vmax | 0.017 mM/min
Nc1ncnc2c1ncn2[C@@H]1O[C@H](COP(=O)(O)CP(=O)(O)OP(=O)(O)O)[C@@H](O)[C@H]1O | P2X purinoceptor 1 (P2RX1, Homo sapiens, UniProt P51575, K136W) | saturation binding | HEK293 | 1 nM |  | specific binding | 77 CCPM and 93 CCPM
CN=C(NC)NCCC[C@H](NC(=O)[C@H](C)N)C(=O)N[C@H](C(=O)N[C@@H](CCCCN)C(=O)N[C@@H](CCC(N)=O)C(=O)N[C@H](C(=O)N[C@@H](C)C(=O)N[C@@H](CCCNC(=N)N)C(=O)N[C@@H](CCCCN)C(=O)N[C@@H](CO)C(=O)O)[C@@H](C)O)[C@@H](C)O | ATRX F284Y/K251R | isothermal titration calorimetry |  | pH 7.5, 25.0 °C |  | binding free energy | -28.7 kJ/mol
CCS(=O)(=O)c1nc(C2CC2)cc(C(F)(F)F)n1 | XPO1 | nuclear export, high content imaging | HeLa Kyoto reporter | 5 µM, 2 h |  | cells with nuclear reporter | 3.67% and 3.84% and 4.94%
CC(Oc1ccccc1)C(=O)NCc1ccccn1 (centres unmarked) | Coatomer subunit beta' WD repeat domain | binding, affinity selection mass spectrometry |  |  | baseline: other proteins in batch | log fold enrichment | -0.144
CCN1CCC[C@H]1CNC(=O)c1c(O)c(Cl)cc(Cl)c1OC | SUCNR1 (Homo sapiens, UniProt Q9BXA5) | β-arrestin recruitment, TANGO luminescence |  | concentration not given | baseline: basal luminescence | log2 fold change | 0.504
O=C(/C=C\n1cnc(-c2cc(C(F)(F)F)cc(C(F)(F)F)c2)n1)NNc1cnccn1 | XPO1 | nuclear export, high content imaging | HeLa Kyoto reporter | 0.1 µM, 2 h |  | cells with nuclear reporter | 4.11% and 5.6%
O=C(O)Cc1ccccc1Nc1c(Cl)cccc1Cl | Nuclear receptor subfamily 2 group C member 2 ligand-binding domain | SPR imaging |  | 600 nM |  | koff | 6.8e-07 s⁻¹
CCCCC[C@H](O)/C=C/[C@H]1C(=O)C[C@H](O)[C@@H]1C/C=C\CCCC(=O)O | PTGDR (Homo sapiens, UniProt Q13258) | agonist |  | 10 µM |  | activation | 97.6%
Oc1ccc(/C=C/c2cc(O)cc(O)c2)cc1 | O-methyltransferase (Sorghum bicolor, UniProt A0A1B6PFV1) | isothermal titration calorimetry |  | concentration not given, apo protein |  | ΔH of binding | -49 ± 1.58 kJ/mol
Nc1nc2c(ncn2[C@@H]2O[C@H](COP(=O)(O)OP(=O)(O)O)[C@@H](O)[C@H]2O)c(=O)[nH]1 | GUK1 (Homo sapiens, UniProt Q16774, S13A) | binding, ITC |  |  |  | ΔH | -29.1 ± 1.05 kJ/mol
CCCC[C@H]1CN(c2cccc(Cl)c2)C(=O)CN1Cc1cncn1Cc1ccc(Br)cc1 | Cryptococcus neoformans farnesyltransferase | enzyme activity, inhibitor, fluorescence |  | together with: 1 µM FPP, 0.5 µM dansylated peptide |  | IC50 | 1.1 ± 0.78 µM
O=S(=O)(O)C1CCNCC1 | SLC6A6 (Homo sapiens, UniProt P31641, G62A) | binding, microscale thermophoresis |  | 15.6 µM, room temperature, together with: 50 nM labelled protein | higher = more binding | normalised MST signal | 0.0221
O=C1Nc2c(ccc(Cl)c2Cl)C1=NO | KCNN4/CALM1 (Homo sapiens, UniProt O15554+P0DP23) | ion current, activator, whole-cell patch clamp | HEK293 | 250 nM | baseline: baseline | current increase | 36 fold
C=C1CN(S(=O)(=O)c2ccc(C)cc2)CCCN(Cc2ccccc2)CCCN(S(=O)(=O)c2ccc(C)cc2)C1 | Protein transport protein Sec61 subunit alpha isoform 1 (Homo sapiens, UniProt P61619) | Sec61-dependent translocation, inhibitor, refers to: CD4 signal peptide-FLuc reporter | HEK293 | 0.04 mM, 6 h |  | FLuc/RLuc ratio | 0.968
CC1(C)Cc2c(sc(NC(=O)c3ccn[nH]3)c2C(N)=O)C(C)(C)O1 | CFTR (Homo sapiens, UniProt P13569, F312A) | single-channel patch clamp |  | 20 µM, together with: ATP 2 mM |  | open time constant | 1080 ± 327 ms

Structure (SMILES) | target | assay | system | conditions | how to read | measurement | result
CC[C@@H]1[C@H](F)C(=O)N[C@@H]1COc1nccc2cc(C(N)=O)c(OC)cc12 | MARK2 (Homo sapiens, UniProt Q7KZI7) | ATP-site probe binding, ActivX profiling | THP-1 cell lysate | 0.2 mM, Lys1 site |  | inhibition | 9.9%
CCCC[C@H]1CN(c2cccc(OC(F)(F)F)c2)C(=O)CN1Cc1cncn1Cc1ccc(Br)cc1 | Protein farnesyltransferase (Cryptococcus neoformans, UniProt J9VSJ6+T2BPA1) | uncompetitive inhibitor |  | together with: 10 mM phosphate |  | Ki | 0.5 µM
O=C1OC(c2ccccc2)=N/C1=C\c1ccccc1 | MAL12 | inhibitor, Lineweaver-Burk |  | 3200 ppm, together with: pNPG substrate |  | Vmax | 0.01 mM/min
Oc1ccccc1-c1n[nH]cc1-c1ccnc2ccccc12 | CBK1 | kinase binding, MIB/MS competition | Candida albicans lysate | 1 µM | baseline: DMSO, negative = stronger binding | log2 fold change | -0.03
COc1cccc(OC[C@@H]2CN(CC(=O)N3CCc4ccccc43)CCO2)c1 | DRD5 (Homo sapiens, UniProt P21918) | radioligand binding |  | concentration not given, together with: [3H]SCH23390 |  | inhibition | -6.2%
CC(C)OCCn1c(=S)[nH]c(=O)c2[nH]ccc21 | Myeloperoxidase (Mus musculus, UniProt P11247) | ELISA, refers to: myeloperoxidase | mice, zymosan or thioglycolate peritonitis, peritoneal lavage | 60 mg/kg |  | protein level | 2370 ng/mL and 2450 ng/mL and 982 ng/mL
CC(C)C[C@@H]1NC(=O)[C@H](C(C)C)NC(=O)CNC(=O)[C@H](CC(N)=O)NC(=O)[C@@H]2CCCN2C(=O)[C@H](Cc2ccc(O)cc2)NC(=O)[C@H](CCCNC(=N)N)NC(=O)[C@H](Cc2ccccc2)NC(=O)[C@@H](NC(=O)[C@H](CCCCN)NC(=O)[C@H](C)NC(=O)[C@H](CO)NC(=O)[C@H](C)NC(=O)[C@@H](N)Cc2ccc(O)cc2)CSSC[C@@H](C(=O)N[C@H](C(N)=O)[C@@H](C)O)NC(=O)[C@H](C)NC1=O | Alpha-2-HS-glycoprotein, asialo (AHSG, Bos taurus, UniProt P12763) | ITC |  | concentration not given, together with: asialofetuin |  | binding enthalpy | -9.96 kJ/mol
O=C(COP(=O)(O)O)[C@@H](O)[C@H](O)[C@H](O)COP(=O)(O)O | PKLR (Homo sapiens, UniProt P30613) | thermal proteome profiling | HepG2 cell lysate | concentration not given, 57 over 37 °C, mean | baseline: compound over control | thermal stability ratio | 0.598
CCCCC[C@H](O)/C=C/[C@H]1[C@H](O)CC(=O)[C@@H]1C/C=C\CCCC(=O)O | PTGER1 (Homo sapiens, UniProt P34995, E134A) | IP1 accumulation, agonist | AD293 | 1 h, EP1 E134A mutant |  | Emax | 57.9 ± 4.71%
C[C@H](N)C(=O)N[C@@H](CCCNC(=N)N(C)C)C(=O)N[C@H](C(=O)N[C@@H](CCCCN)C(=O)N[C@@H](CCC(N)=O)C(=O)N[C@H](C(=O)N[C@@H](C)C(=O)N[C@@H](CCCNC(=N)N)C(=O)N[C@@H](CCCCN)C(=O)N[C@@H](CO)C(=O)O)[C@@H](C)O)[C@@H](C)O | ATRX F284Y/K251R | isothermal titration calorimetry |  | concentration not given, pH 7.5, 25.0 °C |  | binding enthalpy | -20.1 kJ/mol
C[C@@H](c1ccc(-n2cnc3c(N)ncnc32)cc1)N1CCc2nn(C)c(Cc3ccccc3)c2C1=O | EGFR (Homo sapiens, UniProt P00533, del746-750) | KINOMEscan |  | 0.1 µM | baseline: DMSO control | remaining binding | 70%
C=CC(=O)N1CCC(C(=O)NCC(=O)N2CCN(c3nc(-c4cnc(N)nc4C(F)F)nc(N4CCOCC4)n3)CC2)CC1 | EGFR (Homo sapiens, UniProt P00533, G719S) | KINOMEscan |  | 1 µM |  | remaining binding | 97%
O=c1nc(SCc2cc(F)cc(C(F)(F)F)c2)nc(SCc2ccc3sccc3c2)[nH]1 | TOP2A (Homo sapiens, UniProt P11388) | decatenation |  | 15.6 µM |  | mean decatenated DNA | 0.37%
CC1(C)CC2(C)OC(=O)NC2(C)c2ccccc21 (centres unmarked) | Coatomer subunit beta' WD repeat domain | binding, affinity selection mass spectrometry |  |  | baseline: other proteins in batch | fold enrichment | 0.729
C=CC(=O)N1CCC(COCC(=O)N2CCN(c3nc(-c4cnc(N)nc4C(F)F)nc(N4CCOC[C@@H]4C)n3)CC2)CC1 | NEK4 (Homo sapiens, UniProt P51957) | KINOMEscan |  | 1 µM |  | remaining binding | 94%
CCOC(=O)c1ccc(C#Cc2ccc3c(c2)C(C)(C)CCS3)nc1 | Nuclear receptor subfamily 2 group C member 2 ligand-binding domain | SPR imaging |  | 600 nM |  | koff | 1.06e-06 s⁻¹
Cc1cccc(N2CC(C(=O)O)CC2=O)c1 (centres unmarked) | F-box only protein 22, with SKP1 (Homo sapiens, UniProt Q8NEZ5) | binding, affinity selection mass spectrometry |  |  | baseline: other proteins in batch | log fold enrichment | 0.179
CC[C@H](C)[C@@H]1NC(=O)[C@H]([C@@H](C)O)NC(=O)[C@@H]2CCCN2C(=O)[C@H](CC(C)C)NC(=O)[C@H](Cc2ccc(O)cc2)NC(=O)CSC[C@@H](C(N)=O)NC(=O)[C@H](CC(C)C)NC(=O)[C@@H]2CCCN2C(=O)[C@H](Cc2c[nH]cn2)NC(=O)[C@H](Cc2c[nH]c3ccccc23)NC(=O)[C@H](CC(C)C)NC(=O)[C@H](Cc2c[nH]cn2)NC(=O)CNC(=O)[C@H](C(C)C)NC(=O)CNC(=O)[C@H]([C@@H](C)O)NC1=O | VPS35/VPS29 (Homo sapiens, UniProt Q96QK1+Q9UBQ0) | binding, ITC |  | 25 °C, heterodimer |  | ΔG | -35.15 ± 0.335 kJ/mol
N#Cc1ccc2c(-c3ccncc3)c(-c3ccc(F)cc3)nn2c1 | CBK1 | kinase binding, competitor, MIB/MS competition, refers to: CBK1 | Candida albicans cell lysate | 1 µM | baseline: DMSO | log2 fold change | 0.352
Nc1ncnc2c1ncn2[C@@H]1O[C@H](COP(=O)(O)OP(=O)(O)OP(=O)(O)O)[C@@H](O)[C@H]1O | ATP-sensitive inward rectifier potassium channel 1 (Rattus norvegicus, UniProt P35560) | channel activity, inhibitor, inside-out patch clamp |  | together with: ADP 0.2 mM |  | concentration for full inhibition | 1.8 to 2.2 mM
C[C@@](Cc1ccc(O)c(O)c1)(NN)C(=O)O | Nuclear receptor subfamily 2 group C member 2 ligand-binding domain | SPR imaging |  | 600 nM |  | koff | 5.56e-07 s⁻¹
Nc1nc2c(ncn2[C@@H]2O[C@H](COP(=O)(O)O)[C@@H](O)[C@H]2O)c(=O)[nH]1 | GUK1 (Homo sapiens, UniProt Q16774) | enzyme activity, NADH-coupled |  | 125 µM |  | reaction rate | 36 s⁻¹ and 48.3 s⁻¹ and 42.9 s⁻¹
